{"data": "Published values collected from several papers", "note": "Parts stem from different laboratories: compare values within a part only."}
{"data": "Study 1", "target": "RNA binding protein fox-1 homolog 2, RRM domain, GST-SBP tag (RBFOX2, Homo sapiens, UniProt O43251-10, residues 100-194)", "method": "RNA Bind-n-Seq", "form": "RNA", "sample": "in vitro", "concentration": "365 nM", "notes": "natural RNA segment, single round, ends assumed", "baseline": "no-protein control", "direction": "higher = stronger binding", "all sequences stand within": "GGGAGUUCUACAGUCCGACGAUC … UGGAAUUCUCGGGUGCCAA", "Target sequence (chain)": "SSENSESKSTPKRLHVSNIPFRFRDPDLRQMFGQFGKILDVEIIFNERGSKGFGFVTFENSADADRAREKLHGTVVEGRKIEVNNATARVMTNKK"}
{"Sequence": "CGUGCCAGCGUGAAGCUGGUGAAGACCUGCCAGGAGGCAGCCACAGGCGAGUGCCAGCAGUGUUACUGCCGCCCCAUGUGGUGCCUCACCUGCAUGGGCAAGUGGUUCGC", "RBNS enrichment (R)": 2.14}
{"Sequence": "UUGUCUACUAUCCAUACUUCUUAUCACUUUAGUUUUUCAUCAGUCAAUAAAAUUAAUUUACUCUUCCCUAAUAUGUUUGAUUUGUUAAGUUUCAGAAACAUGAAAUGAAA", "RBNS enrichment (R)": 0.565}
{"Sequence": "CCUCGGAAUGUCUGAGAAGGGAUAAUUUCAUUUCUAAAAGCUCUGAGCACCGUGAGUUUGAUCUCGAGAUGAUCAUGUUUGAGCGAUGUAAAGUGCCCAAGAUCCUGCAC", "RBNS enrichment (R)": 1.34}
{"Sequence": "UCGAGGAUGCCGGCGACGAGACUCUGACGUGGACCCUGAGCUGCUGAGGUACUUGCUAGGGCGGAUCCUCACCGGAAGUUCGGAGCCAGAGGCUGCUCCUGCCCCGCGCC", "RBNS enrichment (R)": 0.465}
{"Sequence": "GCCUGAAAAUGUUCAAGACUUAUGUUCAGGGUGGGAUGAUGGAACCGAGGGCUUCAUCAAAGUGAGAGGAAAGGAAAAGCAUCUGGCAUGUGUUUCUUGGAUAGGGGCCA", "RBNS enrichment (R)": 2.54}
{"Sequence": "GACUGUUGUCUGUGCCAACCUAAGAGAUUCCCAGUGCUGGGACCACUGCUUUUUUUCCUGAUGUGGGGUGAGGGUCUAUUCUGUUUCCCAUUCCUGCUGCAUCCUGCCUG", "RBNS enrichment (R)": 2.2}
{"Sequence": "CUCCGAAGACUUAGCGACGCCACUGGCGGCACCUUCUCCUGCGCCCAGUGAUGUUUCCACGGUGCCUGUACACAGCCGAGCAGCAUUUCCGUUGAAGGACUUGCAUCCCC", "RBNS enrichment (R)": 0.394}
{"Sequence": "UAGCUUUGGGCAGAGCCCUUGCUUCCUGGCUGCUUCAGGGCUCAGGGGCUCCCAGCCCUCCUUCCCAGGCUGAUGCUGGGUCCUCUCUCUCUUUGGGGCUUCUCCCUCCC", "RBNS enrichment (R)": 0.449}
{"Sequence": "UGCAGUAUGGCUGUGAUUUCUGCUUCUCCAUGUAGGGGAGCAUGGGACAUCCACUGCCACGCCAAACUCAACUUACCAAUACAUUACGGCCUUGAAAGGGAGCAGAGAGU", "RBNS enrichment (R)": 0.33}
{"Sequence": "AUCUUCAAUGUUAACCCAAAGGAUUCUGAGAUAAAAAUUAUGUGUCAUCUAAACUUCAGUUUACAGACAAAAUUAGAGCUUUGUUUUAUUUGGAGAAGGGGGAUGCAUUC", "RBNS enrichment (R)": 0.436}
{"Sequence": "CUUUCUAAACAGCCCCAGUGUUGAAGUCUAUACUUAAUUUUGUUCUGUUCUGUUUUGUUUUCCUGUUUUGUUUGCAAAAUGGUAAGGGGGGUGUUGGGAGGGGAUGGGUG", "RBNS enrichment (R)": 1.58}
{"Sequence": "UUAAGUACAGAACUUGGUUUCUAACCGUAUUUAGUUUUAUAUGUGUAUUCAGACAGUUAGAGUUUUGGAAGCACACUGGUGAGUAGCUUUUUGCCCCUCCUUCCUUAGCA", "RBNS enrichment (R)": 0.929}
{"data": "Study 2", "target": "Sal-like protein 4, full length isoform B (SALL4, Homo sapiens, UniProt Q9UJQ4-2, residues 1-616)", "method": "universal PBM", "form": "double-stranded DNA, one strand shown", "sample": "in vitro", "concentration": "not given", "notes": "8-mer, flanks averaged, mean of replicates", "direction": "higher = stronger binding"}
{"Sequence": "GGATGGGA", "E-score": -0.185}
{"Sequence": "CAAGGTAC", "E-score": 0.0248}
{"Sequence": "GCCGGTAA", "E-score": -0.147}
{"Sequence": "AGTAATCA", "E-score": 0.0675}
{"Sequence": "AACGGGAT", "E-score": -0.15}
{"Sequence": "CCACGCTC", "E-score": -0.379}
{"Sequence": "ACTTACGA", "E-score": 0.214}
{"Sequence": "GGTCGGCA", "E-score": -0.21}
{"Sequence": "CGTCAGAA", "E-score": -0.0891}
{"Sequence": "TACGTGGA", "E-score": -0.0369}
{"Sequence": "CTCCGGCC", "E-score": -0.327}
{"Sequence": "AACCGCGA", "E-score": -0.0736}
{"Sequence": "ACCTTCGA", "E-score": 0.0975}
{"Sequence": "ACGCCCAT", "E-score": -0.0332}
{"Sequence": "GCCAAACA", "E-score": -0.0679}
{"Sequence": "TGAATAAA", "E-score": 0.244}
{"Sequence": "CATTTAAG", "E-score": 0.204}
{"Sequence": "CGTAGGAA", "E-score": -0.08}
{"Sequence": "GGGTCTTA", "E-score": -0.112}
{"Sequence": "GGGCTCAC", "E-score": -0.375}
{"Sequence": "CTGATGGC", "E-score": -0.182}
{"Sequence": "AATATCGG", "E-score": 0.194}
{"Sequence": "CATCTTAG", "E-score": 0.0183}
{"Sequence": "CCCGTGAC", "E-score": -0.208}
{"Sequence": "GTTTCACA", "E-score": 0.129}
{"data": "Study 3", "target": "Interferon regulatory factor 7, full length, phosphomimetic (IRF7, Homo sapiens, UniProt Q92985, residues 1-503, S101K/S471D/S472D/S475D/S476D/S477D/S483D/S484D/S487D)", "method": "protein-binding microarray", "form": "double-stranded DNA, one strand shown", "sample": "in vitro", "concentration": "250 nM", "notes": "60-bp whole probe", "added": "salmon DNA 0.4 mg/ml", "baseline": "random background probes", "direction": "higher = stronger binding", "all sequences stand within": "GCCTAGCAC … GTCTTGATTCGCTTGACGCTGCTG", "Target sequence (chain)": "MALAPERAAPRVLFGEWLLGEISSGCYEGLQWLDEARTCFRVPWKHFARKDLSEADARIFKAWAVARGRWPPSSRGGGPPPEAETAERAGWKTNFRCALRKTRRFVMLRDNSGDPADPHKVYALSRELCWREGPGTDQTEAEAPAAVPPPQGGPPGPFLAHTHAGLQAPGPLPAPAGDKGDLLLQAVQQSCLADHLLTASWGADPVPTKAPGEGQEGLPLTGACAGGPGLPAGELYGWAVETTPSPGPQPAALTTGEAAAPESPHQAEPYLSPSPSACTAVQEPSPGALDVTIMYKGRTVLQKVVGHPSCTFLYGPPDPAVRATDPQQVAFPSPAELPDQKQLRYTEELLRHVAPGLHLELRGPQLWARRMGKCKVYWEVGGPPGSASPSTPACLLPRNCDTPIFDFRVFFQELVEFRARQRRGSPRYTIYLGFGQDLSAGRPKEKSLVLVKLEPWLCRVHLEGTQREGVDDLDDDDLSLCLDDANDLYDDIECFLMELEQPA"}
{"Sequence": "GACGATCTCAGACTGCAGACGTGCTAG", "log fluorescence [z-score]": -0.38}
{"Sequence": "TTAGATATAAGTCTCGATTAGTGCTAG", "log fluorescence [z-score]": 1.89}
{"Sequence": "GACGATCTCAGTATCGACACGTGCTAG", "log fluorescence [z-score]": -0.118}
{"Sequence": "TTAGATATCAGACTGGATCAGTGCTAG", "log fluorescence [z-score]": -0.246}
{"Sequence": "GACGGACTCCTTTTCCTGACGTGCTAG", "log fluorescence [z-score]": 0.839}
{"Sequence": "ATAGGTATCGGGTATCGGTTAGTGCTA", "log fluorescence [z-score]": 1.72}
{"Sequence": "TCACTTACCTCACTCGTACTGTGCTAG", "log fluorescence [z-score]": 0.534}
{"Sequence": "GACGATTTAAGTATCGAGACGTGCTAG", "log fluorescence [z-score]": 0.0525}
{"Sequence": "TTAGGTTTCCTACGGCTTTAGTGCTAG", "log fluorescence [z-score]": 0.636}
{"Sequence": "TCAAGGGTCTGTTTGGGACTGTGCTAG", "log fluorescence [z-score]": -0.244}
{"Sequence": "TTAGGCTTCGGGACTGGGTTAGTGCTA", "log fluorescence [z-score]": -0.474}
{"Sequence": "TCATCTTTCGATGCTAAAACTGTGCTA", "log fluorescence [z-score]": 1.31}
{"Sequence": "GTAGGACTGCTTATCCTTTAGTGCTAG", "log fluorescence [z-score]": -0.186}
{"Sequence": "GTGTATATGACAATGATGTTGTGCTAG", "log fluorescence [z-score]": -0.0591}
{"Sequence": "GCCGATTTCAGTTCCGAGACGTGCTAG", "log fluorescence [z-score]": 1.14}
{"Sequence": "GACGAACTGGGTCTCGAGACGTGCTAG", "log fluorescence [z-score]": 0.0515}
{"data": "Study 4", "target": "Fragile X messenger ribonucleoprotein 1, C-terminal low-complexity region (Fmr1, Mus musculus, UniProt P35922)", "method": "RNA Bind-n-Seq", "form": "RNA", "sample": "in vitro", "concentration": "200 nM", "notes": "whole 134-nt RNA, ends assumed", "added": "150 mM KCl", "baseline": "input library", "direction": "higher = stronger binding", "all sequences stand within": "GGGAGUUCUACAGUCCGACGAUC … UGGAAUUCUCGGGUGUCAAGG"}
{"Sequence": "ACCAUGCAGGUGGGCAUCUUUGGGAAGUGGGGCAAGGGGGGGAUAGGGAGGGGGGUAACACUUUGGGUACAGGUGGUCCCAGGUCGUUUC", "log2 enrichment": 0.724}
{"Sequence": "UGGGAGGUGGAUUUUGUUUAUUUUUUUAGCUCAUUUCCAGGGGUGGGAAUUUUUUUUAAAUAUGUGUCAUGAAUAAAGUUGUUUUUGAAA", "log2 enrichment": 0.223}
{"Sequence": "GUCCUGUGCUACACAUCGUAUGUACCGAAUCGGGUUUUUUUGGGAGGGAAAAAAAGGGAAAGUAUUAUGUUACGCCGUUCGGAUCUGCAC", "log2 enrichment": -0.109}
{"Sequence": "UGUGCUACACAUCGUAUGUACCGAAUCGGGGAAAAAGGGGUUUUUUUGGGGAAAAAAAGGGGAAAGUAUUAUGUUACGCCGUUCGGAUCU", "log2 enrichment": 0.112}
{"Sequence": "CUCAAGUCCUGUGCUACACAUCGUAUGUACCGAAUCGGGUUUGGGUGGGUGGGAAAGUAUUAUGUUACGCCGUUCGGAUCUGCACUUCCA", "log2 enrichment": 1.52}
{"Sequence": "UUCGACGAAACAAUUCGAAAGCCCAUCAGUUUGGGUUGUGGCCAUACUGUCUGCAAGAUGUGCCUGAAUAAACUCCACCGCAAGGCUUGC", "log2 enrichment": 0.169}
{"Sequence": "CAAGUCCUGUGCUACACAUCGUAUGUACCGAAUCGGGUGGGAGGGAAAAAAAGGGAAAGUAUUAUGUUACGCCGUUCGGAUCUGCACUUC", "log2 enrichment": 0.429}
{"Sequence": "UCCGCACACCCGGCCUGUCACCCUGCUUUCCCUGCCUCUACUUGACUUGGAAUUGGCUGAAGACUACACAGGAAUGCAUCGUUCCCACUC", "log2 enrichment": 0.722}
{"Sequence": "UAACUUUAGAGGAGGAUCUGAUGGAUAUGGCAGUGGACGUGGAUUUGGGGAUGGCUAUAAUGUGUAUGGAGGAGGACCUGGAGGUGGCAA", "log2 enrichment": 0.221}
{"Sequence": "UGGGAGGUGGGUUUUGUUUAUUUUUUUAGCUCAUUUCCAGGGGUGGGAAUUUUUUUUUAAUAUGUGUCAUGAAUAAAGUUGUUUUUGAAA", "log2 enrichment": 0.377}
{"Sequence": "CUCAAGUCCUGUGCUACACAUCGUAUGUACCGAAUCGGGGCCGGGGCCGGCCGGAAAGUAUUAUGUUACGCCGUUCGGAUCUGCACUUCC", "log2 enrichment": -0.236}
{"Sequence": "UGUGCUACACAUCGUAUGUACCGAAUCGGGGAAAAAAAGGGGUUUUUGGGGUUUUUUUGGGGAAAGUAUUAUGUUACGCCGUUCGGAUCU", "log2 enrichment": 0.349}
{"Sequence": "ACCAUGCAGGUGCGCAUCUUUGGGAAGUGGGGCAAGGGGGGGAUAGGGAGGGGGGUAACACUUUGGGAACAGGUGGUCCCAGGUCGUUUC", "log2 enrichment": 0.744}
{"Sequence": "CUGUGCUACACAUCGUAUGUACCGAAUCGGGGAAAAAAAGGGAAAAAAAGGGAAAAAAAGGAAAGUAUUAUGUUACGCCGUUCGGAUCUG", "log2 enrichment": -0.823}
